{"data": "Results from different studies", "note": "A part holds a random share of what one study measured. Positions count from the first letter of the parent shown.", "chain of UniProt Q9Y385 (whole entry, looked up)": "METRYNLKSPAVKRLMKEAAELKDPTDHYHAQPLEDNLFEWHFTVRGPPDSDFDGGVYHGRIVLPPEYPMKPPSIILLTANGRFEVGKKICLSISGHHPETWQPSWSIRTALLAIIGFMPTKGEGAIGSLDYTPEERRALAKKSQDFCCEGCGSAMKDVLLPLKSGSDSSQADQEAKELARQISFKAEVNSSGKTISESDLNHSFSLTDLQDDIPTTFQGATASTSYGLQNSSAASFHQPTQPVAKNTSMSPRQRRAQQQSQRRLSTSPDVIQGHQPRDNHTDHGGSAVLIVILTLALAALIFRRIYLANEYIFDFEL", "chain of UniProt Q8N2K1 (whole entry, looked up)": "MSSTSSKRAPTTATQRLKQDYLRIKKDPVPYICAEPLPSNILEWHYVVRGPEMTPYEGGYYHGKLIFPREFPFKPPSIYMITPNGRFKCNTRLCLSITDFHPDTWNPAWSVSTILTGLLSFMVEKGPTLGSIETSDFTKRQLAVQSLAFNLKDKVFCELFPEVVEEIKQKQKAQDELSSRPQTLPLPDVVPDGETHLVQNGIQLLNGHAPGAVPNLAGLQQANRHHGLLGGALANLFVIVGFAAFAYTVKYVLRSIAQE", "chain of UniProt P63146 (whole entry, looked up)": "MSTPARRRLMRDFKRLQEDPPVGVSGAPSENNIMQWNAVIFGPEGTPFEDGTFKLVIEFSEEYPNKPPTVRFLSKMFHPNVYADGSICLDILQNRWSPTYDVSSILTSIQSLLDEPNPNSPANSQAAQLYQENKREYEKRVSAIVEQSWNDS", "chain of UniProt Q969T4 (whole entry, looked up)": "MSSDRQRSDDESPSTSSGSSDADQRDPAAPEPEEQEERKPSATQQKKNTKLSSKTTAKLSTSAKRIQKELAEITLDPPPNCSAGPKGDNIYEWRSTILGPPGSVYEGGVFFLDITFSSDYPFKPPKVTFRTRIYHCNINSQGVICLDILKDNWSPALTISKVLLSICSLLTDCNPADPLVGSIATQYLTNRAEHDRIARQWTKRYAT", "chain of UniProt Q9C0C9 (whole entry, looked up)": "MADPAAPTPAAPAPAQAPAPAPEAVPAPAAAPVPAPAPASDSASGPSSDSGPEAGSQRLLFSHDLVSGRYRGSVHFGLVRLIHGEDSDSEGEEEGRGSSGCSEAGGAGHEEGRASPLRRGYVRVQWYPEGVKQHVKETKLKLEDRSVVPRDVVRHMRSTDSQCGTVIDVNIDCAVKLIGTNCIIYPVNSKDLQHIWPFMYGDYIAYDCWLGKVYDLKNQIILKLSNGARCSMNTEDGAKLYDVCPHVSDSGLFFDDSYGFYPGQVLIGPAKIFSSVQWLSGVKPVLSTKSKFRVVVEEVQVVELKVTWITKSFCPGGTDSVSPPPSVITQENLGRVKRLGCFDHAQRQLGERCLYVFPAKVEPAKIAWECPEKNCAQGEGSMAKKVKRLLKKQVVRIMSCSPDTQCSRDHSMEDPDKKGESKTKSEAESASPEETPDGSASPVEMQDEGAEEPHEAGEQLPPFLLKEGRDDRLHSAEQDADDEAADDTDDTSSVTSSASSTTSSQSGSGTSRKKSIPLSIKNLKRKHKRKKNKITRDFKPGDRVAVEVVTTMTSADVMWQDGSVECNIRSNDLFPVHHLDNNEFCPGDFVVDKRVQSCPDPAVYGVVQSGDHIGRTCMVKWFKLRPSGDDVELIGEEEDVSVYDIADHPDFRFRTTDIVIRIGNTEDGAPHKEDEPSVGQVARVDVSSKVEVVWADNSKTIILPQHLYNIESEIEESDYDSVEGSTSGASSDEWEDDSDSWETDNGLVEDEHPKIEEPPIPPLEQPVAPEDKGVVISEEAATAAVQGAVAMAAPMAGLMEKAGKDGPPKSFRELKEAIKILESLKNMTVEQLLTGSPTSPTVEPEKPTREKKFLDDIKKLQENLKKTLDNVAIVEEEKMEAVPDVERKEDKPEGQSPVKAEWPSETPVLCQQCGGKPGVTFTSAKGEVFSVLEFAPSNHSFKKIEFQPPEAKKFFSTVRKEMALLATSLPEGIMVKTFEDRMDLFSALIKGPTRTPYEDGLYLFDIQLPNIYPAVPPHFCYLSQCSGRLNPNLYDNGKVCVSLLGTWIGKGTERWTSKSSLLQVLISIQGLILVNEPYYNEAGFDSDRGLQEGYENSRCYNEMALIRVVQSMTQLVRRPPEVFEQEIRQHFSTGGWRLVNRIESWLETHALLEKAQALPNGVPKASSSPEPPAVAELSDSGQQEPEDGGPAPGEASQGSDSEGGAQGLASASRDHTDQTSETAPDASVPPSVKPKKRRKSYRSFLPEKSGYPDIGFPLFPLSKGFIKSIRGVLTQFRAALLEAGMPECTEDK", "chain of UniProt Q9H832 (whole entry, looked up)": "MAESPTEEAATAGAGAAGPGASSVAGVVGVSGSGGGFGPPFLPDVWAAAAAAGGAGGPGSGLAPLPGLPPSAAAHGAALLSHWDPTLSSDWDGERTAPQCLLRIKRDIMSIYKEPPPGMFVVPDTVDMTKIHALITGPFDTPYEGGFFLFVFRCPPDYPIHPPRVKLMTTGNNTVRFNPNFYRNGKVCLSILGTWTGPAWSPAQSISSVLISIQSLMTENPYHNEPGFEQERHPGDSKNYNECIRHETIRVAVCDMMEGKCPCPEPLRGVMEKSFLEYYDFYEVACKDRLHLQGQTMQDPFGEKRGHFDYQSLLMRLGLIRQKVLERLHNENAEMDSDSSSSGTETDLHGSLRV", "chain of UniProt O00762 (whole entry, looked up)": "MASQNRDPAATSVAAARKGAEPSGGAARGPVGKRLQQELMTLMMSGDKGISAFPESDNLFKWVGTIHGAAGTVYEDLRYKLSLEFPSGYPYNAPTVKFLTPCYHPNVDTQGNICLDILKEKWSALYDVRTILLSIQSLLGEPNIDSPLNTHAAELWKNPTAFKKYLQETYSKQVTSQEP", "chain of UniProt Q712K3 (whole entry, looked up)": "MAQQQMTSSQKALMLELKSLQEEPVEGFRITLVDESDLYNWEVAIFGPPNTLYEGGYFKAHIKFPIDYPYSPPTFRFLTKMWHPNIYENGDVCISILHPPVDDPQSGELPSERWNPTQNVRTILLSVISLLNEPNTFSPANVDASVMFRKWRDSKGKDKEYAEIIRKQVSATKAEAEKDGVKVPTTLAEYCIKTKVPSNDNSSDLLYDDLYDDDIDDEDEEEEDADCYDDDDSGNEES", "chain of UniProt Q9NPD8 (whole entry, looked up)": "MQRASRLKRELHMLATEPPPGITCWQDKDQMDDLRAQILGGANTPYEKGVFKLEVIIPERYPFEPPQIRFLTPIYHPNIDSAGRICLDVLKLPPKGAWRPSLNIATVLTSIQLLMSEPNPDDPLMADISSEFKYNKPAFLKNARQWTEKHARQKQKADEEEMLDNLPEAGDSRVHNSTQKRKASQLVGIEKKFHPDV", "chain of UniProt P61081 (whole entry, looked up)": "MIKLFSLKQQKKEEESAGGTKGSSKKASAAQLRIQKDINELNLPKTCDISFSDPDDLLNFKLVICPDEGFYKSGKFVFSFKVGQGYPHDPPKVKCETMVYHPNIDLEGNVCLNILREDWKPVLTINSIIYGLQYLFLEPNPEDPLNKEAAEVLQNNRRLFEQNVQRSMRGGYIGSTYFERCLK", "chain of UniProt P51668 (whole entry, looked up)": "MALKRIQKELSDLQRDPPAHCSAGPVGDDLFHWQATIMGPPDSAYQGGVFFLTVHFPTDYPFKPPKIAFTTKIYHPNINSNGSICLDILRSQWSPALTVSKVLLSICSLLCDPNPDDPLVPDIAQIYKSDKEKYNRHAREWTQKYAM", "chain of UniProt Q7Z7E8 (whole entry, looked up)": "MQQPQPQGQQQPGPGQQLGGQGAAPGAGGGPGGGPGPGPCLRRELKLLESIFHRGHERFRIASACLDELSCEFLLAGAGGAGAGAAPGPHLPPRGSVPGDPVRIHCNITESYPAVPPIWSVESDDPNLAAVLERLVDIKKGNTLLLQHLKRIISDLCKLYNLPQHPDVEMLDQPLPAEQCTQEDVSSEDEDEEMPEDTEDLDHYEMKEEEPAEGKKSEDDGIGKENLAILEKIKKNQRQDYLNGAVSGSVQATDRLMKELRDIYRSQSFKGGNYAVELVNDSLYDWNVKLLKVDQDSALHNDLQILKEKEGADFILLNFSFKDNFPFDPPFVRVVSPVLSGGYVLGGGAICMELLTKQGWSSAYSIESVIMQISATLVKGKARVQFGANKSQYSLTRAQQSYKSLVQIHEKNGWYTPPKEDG"}
{"data": "Series 1", "target": "Centromere-binding protein 1, full length, N-terminal tag (CBF1, Saccharomyces cerevisiae, UniProt P17106, residues 1-351)", "technique": "protein-binding microarray", "form": "double-stranded DNA, one strand shown", "sample": "in vitro", "concentration": "0.8 µM", "notes": "whole 60-bp probe, no competitor", "reading": "higher = stronger binding", "all sequences stand within": "… GTCTTGATTCGCTTGACGCTGCTG", "chain of UniProt P17106 (whole entry, looked up)": "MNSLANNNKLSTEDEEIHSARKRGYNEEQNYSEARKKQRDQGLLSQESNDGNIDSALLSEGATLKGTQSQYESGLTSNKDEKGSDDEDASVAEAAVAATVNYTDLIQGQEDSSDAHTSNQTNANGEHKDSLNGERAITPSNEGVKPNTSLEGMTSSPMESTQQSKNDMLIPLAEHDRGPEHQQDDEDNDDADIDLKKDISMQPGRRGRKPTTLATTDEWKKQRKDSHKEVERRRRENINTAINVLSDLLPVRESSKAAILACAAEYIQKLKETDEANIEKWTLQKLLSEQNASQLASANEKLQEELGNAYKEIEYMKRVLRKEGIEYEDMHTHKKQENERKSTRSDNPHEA"}
{"Sequence": "GAAAGCGCTGCGAGGCACGTATCAGAAACAATGTAG", "fluorescence intensity [a.u.]": 513}
{"Sequence": "CTATGTGAGGTGCATTACATCATGAAAGAGTATTTC", "fluorescence intensity [a.u.]": 543}
{"Sequence": "GAACTATGGTACAAGCACGTTCGCCTCATTCATTAG", "fluorescence intensity [a.u.]": 526}
{"Sequence": "CTACTGAAGATTCGAAACGTGTTTCTAAAACCATTC", "fluorescence intensity [a.u.]": 599}
{"Sequence": "TGTACGAAGCTATGTGACCAGTTTATAGTAGTTAGG", "fluorescence intensity [a.u.]": 601}
{"Sequence": "CTATACATCAAAATCCACATGCTCTACAATCAATTC", "fluorescence intensity [a.u.]": 643}
{"Sequence": "CTATCATTTGAATAGTACATGATGCAATAGAAGTTC", "fluorescence intensity [a.u.]": 597}
{"Sequence": "TGTACGAAGCTATACCACGTAATTATAGTAGTTAGG", "fluorescence intensity [a.u.]": 531}
{"Sequence": "CTAGCACGTGCGATCATCGTGGCGGGGTTTTAATTC", "fluorescence intensity [a.u.]": 7870}
{"Sequence": "GAAACCCATAAACCACACGTTTAACTATTTGGGTAG", "fluorescence intensity [a.u.]": 500}
{"Sequence": "CTAAAACGCTTTGTGGGCATCAGGTTTAGATTATTC", "fluorescence intensity [a.u.]": 491}
{"Sequence": "CTACCTGACATAGCCCTGATGTTGAAGATTTTCTTC", "fluorescence intensity [a.u.]": 492}
{"Sequence": "GAAGCTACTCCGGCCATCGTGGGTGACATTCGTTAG", "fluorescence intensity [a.u.]": 486}
{"Sequence": "GAACTATGTAAAGGTGATCCAGTCTTGGTTAGCTAG", "fluorescence intensity [a.u.]": 498}
{"Sequence": "GAAGCATGACTAGATGTCACGAATGTTTTGGAGTAG", "fluorescence intensity [a.u.]": 603}
{"Sequence": "GAATTTATTTCCCCTCATGATAAAACAAGATCTTAG", "fluorescence intensity [a.u.]": 547}
{"Sequence": "CTAAGAACCAGTCATCAGACTAATGAAAGCTGATTC", "fluorescence intensity [a.u.]": 573}
{"data": "Series 2", "target": "ABI1, truncated, D143A, DHFR fusion (Arabidopsis thaliana)", "technique": "DHFR PCA, deep sequencing", "sample": "yeast", "notes": "methotrexate growth selection, single substitutions", "together with": "(+)-ABA 2500 µM", "reference": "wild-type fitted maximum", "reading": "higher = stronger binding", "starting sequence": "PYL1, truncated, DHFR fusion (Arabidopsis thaliana); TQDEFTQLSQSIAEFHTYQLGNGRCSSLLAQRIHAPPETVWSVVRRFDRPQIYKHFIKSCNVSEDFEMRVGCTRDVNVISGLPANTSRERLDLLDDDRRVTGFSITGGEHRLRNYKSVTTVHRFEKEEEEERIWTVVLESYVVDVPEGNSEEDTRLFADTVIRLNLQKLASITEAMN"}
{"Change": "Q10P", "relative binding score": "104%"}
{"Change": "E130C", "relative binding score": "101%"}
{"Change": "Q51R", "relative binding score": "85%"}
{"Change": "F157C", "relative binding score": "66.4%"}
{"Change": "V100T", "relative binding score": "95.3%"}
{"Change": "V70E", "relative binding score": "96.9%"}
{"Change": "A13F", "relative binding score": "98.6%"}
{"Change": "R74C", "relative binding score": "-6.07%"}
{"Change": "H110Q", "relative binding score": "77.6%"}
{"Change": "A175P", "relative binding score": "95.2%"}
{"Change": "R113Q", "relative binding score": "117%"}
{"Change": "D75K", "relative binding score": "102%"}
{"Change": "P37V", "relative binding score": "97.4%"}
{"Change": "G108I", "relative binding score": "52.1%"}
{"Change": "P37E", "relative binding score": "95.9%"}
{"Change": "G107N", "relative binding score": "99.4%"}
{"data": "Series 3", "target": "CCND1, cyclin fold, Cln2 fusion (human)", "technique": "yeast growth competition, sequencing", "sample": "yeast", "notes": "weak parent motif", "reference": "not given", "reading": "higher = stronger binding", "starting sequence": "CDC6 docking peptide (human); TLKGRRLVFDNQL"}
{"Change": "K3R", "normalised enrichment score": 0.591}
{"Change": "R5D", "normalised enrichment score": -0.000825}
{"Change": "F9N", "normalised enrichment score": -0.211}
{"Change": "G4F", "normalised enrichment score": -0.19}
{"Change": "L13D", "normalised enrichment score": 0.693}
{"Change": "D10V", "normalised enrichment score": -0.861}
{"Change": "Q12R", "normalised enrichment score": -0.145}
{"Change": "R5K", "normalised enrichment score": 0.291}
{"Change": "D10I", "normalised enrichment score": 0.619}
{"Change": "R6A", "normalised enrichment score": 0.686}
{"Change": "N11R", "normalised enrichment score": 0.0846}
{"Change": "R6P", "normalised enrichment score": 2.17}
{"data": "Series 4", "target": "Histone acetyltransferase KAT6A, winged helix 1, GST fusion (KAT6A, Homo sapiens, UniProt Q92794, residues 1-85)", "technique": "protein binding microarray", "form": "double-stranded DNA, one strand shown", "sample": "in vitro", "concentration": "not given", "notes": "8-mer, flanks averaged, mean of 2 arrays, mostly near background", "reference": "not given", "reading": "higher = stronger binding", "Construct (chain)": "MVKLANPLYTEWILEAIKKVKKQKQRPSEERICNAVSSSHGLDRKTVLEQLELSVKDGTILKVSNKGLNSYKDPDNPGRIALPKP"}
{"Sequence": "ACCTGTTG", "E-score": -0.149}
{"Sequence": "ACCTCACC", "E-score": -0.137}
{"Sequence": "GGCCTGAA", "E-score": 0.0994}
{"Sequence": "AAGGATTC", "E-score": -0.148}
{"Sequence": "AGCCGGCC", "E-score": 0.222}
{"Sequence": "AGACTGAA", "E-score": -0.183}
{"Sequence": "ACCGTAGC", "E-score": 0.275}
{"Sequence": "TCATGAAA", "E-score": -0.115}
{"Sequence": "GTCAAAGA", "E-score": -0.215}
{"Sequence": "ATACGCGA", "E-score": 0.156}
{"Sequence": "GTAGATAA", "E-score": 0.0601}
{"Sequence": "CTCACTGA", "E-score": -0.245}
{"Sequence": "CAAAACAG", "E-score": -0.111}
{"Sequence": "AGGGCCAA", "E-score": -0.0953}
{"Sequence": "CAAACTTA", "E-score": 0.0676}
{"Sequence": "CTAGTCAA", "E-score": -0.264}
{"Sequence": "CGGCCTAA", "E-score": 0.159}
{"data": "Series 5", "target": "RNA binding protein fox-1 homolog 2, RRM domain, GST-SBP tag (RBFOX2, Homo sapiens, UniProt O43251-10, residues 100-194)", "technique": "RNA Bind-n-Seq", "form": "RNA", "sample": "in vitro", "concentration": "365 nM", "notes": "natural RNA segment, single round, ends assumed", "reference": "no-protein control", "reading": "higher = stronger binding", "all sequences stand within": "GGGAGUUCUACAGUCCGACGAUC … UGGAAUUCUCGGGUGCCAA", "Residues (chain)": "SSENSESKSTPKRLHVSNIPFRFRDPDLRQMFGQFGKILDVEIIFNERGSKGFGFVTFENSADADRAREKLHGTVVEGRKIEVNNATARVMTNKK"}
{"Sequence": "GCGUGUGCACAUAUGUGUGCACACAUGUGCGUGUGUGUGUUCAUGUGUGUGCAUGCUUGUGUCUUUCCACAGCUUUUUUUUUUUUUUUAAGGAUCAUCCUACUGCUAAGU", "RBNS enrichment (R)": 0.678}
{"Sequence": "GGAAAAACAAAGUUGCCUGAUUCCGCGCAGGUGCACAGGCCCCGGAUGUACACCCGGAAAGGGGAGUGUGGCUGUAGAAUCAUCCAUCCGUCUACAGCUAAAACAAUUUG", "RBNS enrichment (R)": 0.341}
{"Sequence": "UCAAAGGACAAGUCGGACUUGUGAGUCCUAGGUGACCACACUGCUUCCCUUUCUCAGUUCCUGACCUUCCUCUGAGCCCUUGAGACACUUUGUAAUGCUCUUUUGUAACU", "RBNS enrichment (R)": 0.445}
{"Sequence": "ACCUCCUCGGCAAUUGCUCAUUCUAGGGUUGGGCAUCAUAGUUGGUCAGUCUUAAUUCCCAUGCCAAAGGACAAACAGGUGUGACAUUUGGAUAGAUGAAUACUGGGAUU", "RBNS enrichment (R)": 0.684}
{"Sequence": "ACCAUGCAUGACUCAGAUGCCCUCAGGUCCCUUUCUCUAUGGUAUGUAUACUGCUUGUGUUUGGGUUGAAGCACUACCUGACAUUAAAGGAAGGACUUGGAGAGAGAAUG", "RBNS enrichment (R)": 22.6}
{"Sequence": "AAAUGUACUAGCUAAAAAUGGAUACACAAUGAAGAAUUCUAUUUGGCUAAUUAAGAAUGAUAUACUAUGUACACCCAAUAAGCUGUACUAGAAUGAAUAAAUUACUGAUA", "RBNS enrichment (R)": 0.648}
{"Sequence": "CAAGCGUGGACUCUUGUCUCACCUCAUCAAUUAUUCUGUGAUGUUGAAUCAGGAUUCUAAAGGCUAGCUUUUUUCAGUAGAAGACCCUUGUACCCACGAUUAGAAAAGAC", "RBNS enrichment (R)": 0.289}
{"Sequence": "UAGUAGAGCUGUCAGAAGAAGGCCACCGUCCUCCAGACAUCAGAAUGGUAUAUCCACUGACAGCUUGCACCAUGCACCUGGAAAAGCCACAGACACUCAACGCCAGCCUG", "RBNS enrichment (R)": 0.353}
{"Sequence": "CAAAAUGAGGGAGAAACAUUUGCCUGCCUUGUAAUAACAAGACUCAGUGCUUAUUUUUUAAACUGCAUUUUAAAAAUUGGAUAGUAUAAUAACAAUAAGGAGUAAGCCAC", "RBNS enrichment (R)": 0.35}
{"Sequence": "GCCUGUGUCGCAGCAGCCCAGCAUCAAGCAUGUCACACACUGCCCUGCCACAGCCACCUCCCUCCCUGGCCAUCCCAGAGCCGAGGCUCCCACUGUCCUCAGAGAGCCUG", "RBNS enrichment (R)": 1.16}
{"Sequence": "GUGCCACGAGUGUUGAACCUCAUCCCUUCCUGUGUCCUGGGCUGAGUGACCAGGUCAGUGGCCCUGCCCGUGAAGGCUGGCGAUUAACUGUGGCAGCAGACAUGUCCUGU", "RBNS enrichment (R)": 0.314}
{"Sequence": "AUCUGUGAGAGACUGACUAUAGCAGAAGCGGAUUCAAAGAAGACAGACCUUGACCAAAGAUGCUGAAAUACAGUGUUGGGAUCCUUGUACUCUGGAACCAUGCCAUCACU", "RBNS enrichment (R)": 0.279}
{"data": "Series 6", "Sequence": "MDDQGCPRCKTTKYRNPSLKLMVNVCGHTLCESCVDLLFVRGAGNCPECGTPLRKSNFRV (MNAT1 RING domain (UniProt P51948))", "technique": "yeast two-hybrid", "sample": "yeast", "notes": "mostly zero background", "reference": "not given", "reading": "higher = stronger interaction"}
{"target": "UBE2C UBC core domain (UniProt O00762)", "lacZ reporter activity": 0}
{"target": "UBE2Z UBC core domain (UniProt Q9H832)", "lacZ reporter activity": 0}
{"target": "UBE2M UBC core domain (UniProt P61081)", "lacZ reporter activity": 0}
{"target": "UBE2T UBC core domain (UniProt Q9NPD8)", "lacZ reporter activity": 0}
{"target": "UBE2E3 UBC core domain (UniProt Q969T4)", "lacZ reporter activity": 0}
{"target": "UBE2J2 UBC core domain (UniProt Q8N2K1)", "lacZ reporter activity": 0}
{"target": "UBE2D1 UBC core domain (UniProt P51668)", "lacZ reporter activity": 0}
{"target": "UBE2J1 UBC core domain (UniProt Q9Y385)", "lacZ reporter activity": 0}
{"target": "UBE2Q1 UBC core domain (UniProt Q7Z7E8)", "lacZ reporter activity": 0}
{"target": "BIRC6 UBC core domain (UniProt Q9NR09)", "lacZ reporter activity": 0}
{"target": "UBE2B UBC core domain (UniProt P63146)", "lacZ reporter activity": 0}
{"target": "UBE2O UBC core domain (UniProt Q9C0C9)", "lacZ reporter activity": 0}
{"target": "UBE2R2 UBC core domain (UniProt Q712K3)", "lacZ reporter activity": 0}
{"target": "UBE2I UBC core domain (UniProt P63279)", "lacZ reporter activity": 0}
{"note": "Repeated from above (series 2):"}
{"Change": "D75K", "relative binding score": "102%"}
{"Change": "R74C", "relative binding score": "-6.07%"}
{"Change": "V70E", "relative binding score": "96.9%"}
{"Change": "A175P", "relative binding score": "95.2%"}
{"Change": "A13F", "relative binding score": "98.6%"}
{"Change": "F157C", "relative binding score": "66.4%"}
{"Change": "G108I", "relative binding score": "52.1%"}
{"Change": "V100T", "relative binding score": "95.3%"}
{"Change": "P37E", "relative binding score": "95.9%"}
